Results pooled from the literature.
Parts stem from different laboratories: compare values within a part only. Several values in a cell are separate wells, animals, samples, runs or records. ± marks the error that the study gave.
Sequence of UniProt Q9HBY8 (whole entry, looked up): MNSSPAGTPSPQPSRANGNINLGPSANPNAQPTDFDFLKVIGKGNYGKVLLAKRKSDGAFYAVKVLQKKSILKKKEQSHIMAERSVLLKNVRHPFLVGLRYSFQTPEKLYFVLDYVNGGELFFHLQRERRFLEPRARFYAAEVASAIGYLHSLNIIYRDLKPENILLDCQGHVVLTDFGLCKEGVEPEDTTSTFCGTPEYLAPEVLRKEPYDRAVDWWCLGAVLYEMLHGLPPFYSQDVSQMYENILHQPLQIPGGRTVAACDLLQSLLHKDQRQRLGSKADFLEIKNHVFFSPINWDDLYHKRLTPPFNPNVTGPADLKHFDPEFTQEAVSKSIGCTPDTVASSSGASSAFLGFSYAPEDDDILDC
Sequence of UniProt Q99640 (whole entry, looked up): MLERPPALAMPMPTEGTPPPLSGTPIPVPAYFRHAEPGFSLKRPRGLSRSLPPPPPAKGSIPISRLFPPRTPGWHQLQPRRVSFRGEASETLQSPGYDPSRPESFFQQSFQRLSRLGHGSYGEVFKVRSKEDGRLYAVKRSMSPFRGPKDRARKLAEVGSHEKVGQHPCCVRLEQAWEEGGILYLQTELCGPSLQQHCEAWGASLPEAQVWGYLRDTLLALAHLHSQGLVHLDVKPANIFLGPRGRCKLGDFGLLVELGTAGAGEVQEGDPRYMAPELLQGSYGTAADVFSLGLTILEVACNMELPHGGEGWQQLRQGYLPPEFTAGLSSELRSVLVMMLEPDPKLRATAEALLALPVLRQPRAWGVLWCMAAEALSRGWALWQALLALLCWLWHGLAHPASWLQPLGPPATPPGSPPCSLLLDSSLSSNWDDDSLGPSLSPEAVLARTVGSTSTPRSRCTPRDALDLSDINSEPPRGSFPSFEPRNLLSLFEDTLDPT
Sequence of UniProt Q96L34 (whole entry, looked up): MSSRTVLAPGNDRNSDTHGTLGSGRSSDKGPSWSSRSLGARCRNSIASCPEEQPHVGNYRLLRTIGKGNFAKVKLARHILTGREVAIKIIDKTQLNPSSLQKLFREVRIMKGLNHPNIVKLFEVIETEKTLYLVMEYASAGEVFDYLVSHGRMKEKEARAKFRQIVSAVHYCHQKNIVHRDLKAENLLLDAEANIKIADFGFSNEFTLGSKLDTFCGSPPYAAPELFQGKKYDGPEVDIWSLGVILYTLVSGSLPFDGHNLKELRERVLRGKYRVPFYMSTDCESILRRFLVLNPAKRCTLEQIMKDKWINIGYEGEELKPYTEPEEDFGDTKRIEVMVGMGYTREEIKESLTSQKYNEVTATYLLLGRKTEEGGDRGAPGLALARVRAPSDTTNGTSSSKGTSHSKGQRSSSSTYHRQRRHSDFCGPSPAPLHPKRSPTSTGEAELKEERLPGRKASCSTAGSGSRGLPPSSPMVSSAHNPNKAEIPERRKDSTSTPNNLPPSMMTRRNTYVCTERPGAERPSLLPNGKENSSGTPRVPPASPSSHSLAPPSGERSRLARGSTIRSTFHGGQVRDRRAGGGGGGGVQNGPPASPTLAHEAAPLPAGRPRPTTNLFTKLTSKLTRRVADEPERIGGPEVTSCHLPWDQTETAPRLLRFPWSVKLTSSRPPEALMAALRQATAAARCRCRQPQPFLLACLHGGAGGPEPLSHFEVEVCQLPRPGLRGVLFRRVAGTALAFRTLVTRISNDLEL
Sequence of UniProt P45985 (whole entry, looked up): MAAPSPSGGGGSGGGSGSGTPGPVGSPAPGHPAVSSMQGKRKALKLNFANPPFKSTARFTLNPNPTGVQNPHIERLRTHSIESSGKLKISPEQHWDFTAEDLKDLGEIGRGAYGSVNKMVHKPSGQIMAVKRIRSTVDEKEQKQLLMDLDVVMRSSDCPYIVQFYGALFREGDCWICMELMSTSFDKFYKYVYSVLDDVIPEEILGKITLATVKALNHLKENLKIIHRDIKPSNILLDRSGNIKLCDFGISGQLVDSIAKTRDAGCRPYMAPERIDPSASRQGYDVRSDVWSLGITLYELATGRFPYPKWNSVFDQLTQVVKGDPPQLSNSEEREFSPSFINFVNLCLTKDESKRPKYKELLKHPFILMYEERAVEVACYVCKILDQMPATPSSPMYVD
Sequence of UniProt Q86Y07 (whole entry, looked up): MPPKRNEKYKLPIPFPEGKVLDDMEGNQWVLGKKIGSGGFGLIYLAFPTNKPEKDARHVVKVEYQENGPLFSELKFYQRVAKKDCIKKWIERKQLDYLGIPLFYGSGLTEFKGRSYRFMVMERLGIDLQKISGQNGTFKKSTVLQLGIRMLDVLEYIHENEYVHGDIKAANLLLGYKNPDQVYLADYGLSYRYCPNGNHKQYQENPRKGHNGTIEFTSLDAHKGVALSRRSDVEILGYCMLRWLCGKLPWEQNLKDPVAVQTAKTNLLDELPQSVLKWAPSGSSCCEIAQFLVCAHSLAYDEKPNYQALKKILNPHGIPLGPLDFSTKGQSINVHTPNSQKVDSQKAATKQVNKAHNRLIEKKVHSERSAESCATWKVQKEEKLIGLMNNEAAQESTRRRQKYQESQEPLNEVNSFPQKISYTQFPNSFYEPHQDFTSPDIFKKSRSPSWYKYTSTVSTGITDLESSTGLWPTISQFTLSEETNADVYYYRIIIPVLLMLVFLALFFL

Series 1
Structure (SMILES): CCN1/C(=C/C=C2\CCCC(/C=C/C3=[N+](CC)c4ccccc4C3(C)C)=C2NCCCCCCCCN2CCC(Nc3nc4ccccc4n3Cc3ccc(F)cc3)CC2)C(C)(C)c2ccccc21
Cell line: U-87 MG
Concentration: concentration not given
Baseline: DMSO
| test | log2 fold change |
| --- | --- |
| item: CACNA2D3 mRNA | -3.27 |
| item: PGAM4 mRNA | -0.827 |
| item: CALM3 mRNA | -1.51 |
| item: TOP2A mRNA | -2.12 |
| item: TMEM107 mRNA | -1.13 |
| item: ELF3 mRNA | 4.3 |
| item: SARDH mRNA | -1.48 |
| item: SSC5D mRNA | -1.23 |
| item: ADAM8 mRNA | -1.75 |
| item: MKI67 mRNA | -2.14 |
| item: CSTF2T mRNA | -1.17 |
| item: ACACB mRNA | -0.883 |

Series 2
Compound: C[C@@H]1CN(c2ccc(-c3cc(C(=O)NCCOCCOCCOCCOCCNC(=O)/C=C/c4[nH]cc(C(=O)N[C@@H](CC(N)=O)c5ccc(F)c(Cl)c5)c4-c4ccc(Cl)cc4F)ccc3F)cc2NC(=O)c2c[nH]c(=O)cc2C(F)(F)F)C[C@H](C)N1C
Observed: thermal unfolding
Method: differential scanning fluorimetry
Concentration: 5.5 µM
Reading: higher = more unfolded
WDR5: WD repeat-containing protein 5 (WDR5, Homo sapiens, UniProt P61964)
DCAF1: DDB1- and CUL4-associated factor 1 (DCAF1, Homo sapiens, UniProt Q9Y4B6)
Sequence of UniProt Q9Y4B6 (whole entry, looked up): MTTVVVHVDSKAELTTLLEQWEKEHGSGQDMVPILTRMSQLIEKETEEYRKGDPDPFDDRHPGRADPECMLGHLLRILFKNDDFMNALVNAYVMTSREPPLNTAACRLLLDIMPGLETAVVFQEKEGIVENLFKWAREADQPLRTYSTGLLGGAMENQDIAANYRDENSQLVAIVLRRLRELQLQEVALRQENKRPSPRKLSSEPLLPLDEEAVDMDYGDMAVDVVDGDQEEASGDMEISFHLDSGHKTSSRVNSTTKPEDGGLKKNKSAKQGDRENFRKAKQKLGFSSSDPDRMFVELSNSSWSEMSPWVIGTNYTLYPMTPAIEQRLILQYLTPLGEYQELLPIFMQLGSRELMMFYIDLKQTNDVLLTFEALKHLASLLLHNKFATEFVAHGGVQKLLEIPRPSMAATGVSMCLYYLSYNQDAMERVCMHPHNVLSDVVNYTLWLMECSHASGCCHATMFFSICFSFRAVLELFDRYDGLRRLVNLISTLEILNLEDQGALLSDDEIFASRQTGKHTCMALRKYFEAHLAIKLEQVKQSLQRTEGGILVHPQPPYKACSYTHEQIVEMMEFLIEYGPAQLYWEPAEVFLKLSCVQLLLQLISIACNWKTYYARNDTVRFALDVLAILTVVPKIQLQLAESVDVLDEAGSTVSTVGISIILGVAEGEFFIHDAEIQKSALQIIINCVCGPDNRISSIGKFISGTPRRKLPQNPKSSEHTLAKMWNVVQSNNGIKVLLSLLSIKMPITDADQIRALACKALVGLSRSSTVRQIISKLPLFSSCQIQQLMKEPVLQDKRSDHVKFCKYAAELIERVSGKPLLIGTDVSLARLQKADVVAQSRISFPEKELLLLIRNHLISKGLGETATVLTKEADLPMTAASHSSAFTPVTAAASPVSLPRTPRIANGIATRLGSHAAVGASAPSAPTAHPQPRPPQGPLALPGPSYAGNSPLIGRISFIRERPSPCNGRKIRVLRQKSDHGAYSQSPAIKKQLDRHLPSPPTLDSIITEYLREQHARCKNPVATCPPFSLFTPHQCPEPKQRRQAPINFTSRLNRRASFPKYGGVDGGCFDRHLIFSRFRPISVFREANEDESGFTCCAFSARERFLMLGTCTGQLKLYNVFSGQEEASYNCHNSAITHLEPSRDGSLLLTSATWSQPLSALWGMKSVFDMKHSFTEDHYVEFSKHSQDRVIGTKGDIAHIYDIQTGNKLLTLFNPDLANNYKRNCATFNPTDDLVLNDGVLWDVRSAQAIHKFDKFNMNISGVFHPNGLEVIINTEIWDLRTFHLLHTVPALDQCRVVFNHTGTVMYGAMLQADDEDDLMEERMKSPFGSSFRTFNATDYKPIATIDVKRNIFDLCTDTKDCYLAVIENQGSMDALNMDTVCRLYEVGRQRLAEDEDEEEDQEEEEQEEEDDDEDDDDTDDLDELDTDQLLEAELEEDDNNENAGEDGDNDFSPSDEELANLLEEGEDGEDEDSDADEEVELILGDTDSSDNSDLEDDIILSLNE
| target | conditions | SYPRO Orange fluorescence [a.u.] |
| --- | --- | --- |
| WDR5 | 80.01 °C | 40500 |
| DCAF1 | 57.41 °C | 28800 |
| DCAF1 | 70.01 °C | 55900 |
| DCAF1 | 45.6 °C | 13300 |
| WDR5 | 78.61 °C | 36200 |
| WDR5 | 64.21 °C | 14000 |
| DCAF1 | 48.2 °C | 14400 |
| WDR5 | 92.01 °C | 48500 |
| WDR5 | 84.01 °C | 50600 |
| WDR5 | 46.4 °C | 15600 |
| WDR5 | 39 °C | 14100 |

Series 3
SMILES: COCC1CC2C(CCC3(C)C(O)CCC23)c2ccc(O)cc21 (stereo not drawn)
Method: DNA microarray
Baseline: untreated cells
| cell line | test | conditions | mRNA level ratio |
| --- | --- | --- | --- |
| PANC-1 | item: GTSE1 | concentration not given, lower dose arm | 0.821 |
| PANC-1 | item: CCL11 | concentration not given, higher dose arm | 1 |
| A549 | item: RFC3 | 100 µM | 0.652 |
| A549 | item: GINS1 | 100 µM | 0.583 |
| A549 | item: IL28A | 50 µM | 2.66 |
| PANC-1 | item: GZMK | concentration not given, higher dose arm | 1 |
| A549 | item: DNER | 100 µM | 52.5 |
| PANC-1 | item: ACTA2 | concentration not given, higher dose arm | 0.759 |
| A549 | item: MCM4 | 100 µM | 0.541 |
| SK-OV-3 | item: RFC3 | concentration not given, higher dose arm | 0.845 |

Series 4
Compound: CN(C1COC1)C(C)(C)/C=C(\C#N)C(=O)N1CCC[C@H]1Cn1nc(-c2ccc(Oc3ccccc3)cc2F)c2c(N)ncnc21
Observed: kinase activity
| target | conditions | inhibition [%] |
| --- | --- | --- |
| Protein kinase C eta type (PRKCH, Homo sapiens, UniProt P24723) | 0.1 µM | 5 |
| Macrophage-stimulating protein receptor (MST1R, Homo sapiens, UniProt Q04912) | 0.1 µM | 0 |
| Serine/threonine-protein kinase Sgk2 (SGK2, Homo sapiens, UniProt Q9HBY8) | 1 µM | 6 |
| Tyrosine-protein kinase Lck (LCK, Homo sapiens, UniProt P06239) | 1 µM | 65 |
| Glycogen synthase kinase-3 alpha (GSK3A, Homo sapiens, UniProt P49840) | 1 µM | -4 |
| Serine/threonine-protein kinase 25 (STK25, Homo sapiens, UniProt O00506) | 0.1 µM | 6 |
| Cyclin-dependent kinase 1 (CDK1, Homo sapiens, UniProt P06493) | 1 µM | 6 |
| Serine/threonine-protein kinase 16 (STK16, Homo sapiens, UniProt O75716) | 0.1 µM | 16 |
| Phosphorylase b kinase gamma catalytic chain, liver/testis isoform (PHKG2, Homo sapiens, UniProt P15735) | 1 µM | 1 |
| Homeodomain-interacting protein kinase 4 (HIPK4, Homo sapiens, UniProt Q8NE63) | 1 µM | 2 |

Series 5
Compound: C#Cc1cccc2cc(O)cc(-c3ncc4c(N5CC6CCC(C5)N6)nc(OCC56CCCN5CCC6)nc4c3F)c12
Baseline: vehicle
| cell line | test | conditions | viability |
| --- | --- | --- | --- |
| HEK293 | CellTiter-Glo | 1.52 nM | 98.7% and 95.9% and 98.2% |
| HEK293 | CellTiter-Glo | 1.11 µM | 97.8% and 95.6% and 96.8% |
| NCI-H647 | cell proliferation, CellTiter-Glo luminescence | 0.04576 µM | 96.1% and 97.4% and 96.2% |
| HEK293 | CellTiter-Glo luminescence | 0.04576 µM | 97.8% and 96.8% and 95.6% |
| HEK293 | CellTiter-Glo | 370 nM | 96.5% and 99.4% and 94.2% |
| NCI-H647 | cell proliferation, CellTiter-Glo luminescence | 0.5229 µM | 91.8% and 91.3% and 93.3% |
| HEK293 | CellTiter-Glo | 41.1 nM | 99.1% and 101% and 98.5% |

Series 6
SMILES: CC[C@@]1(c2cccc(-c3c(F)cncc3OC)c2)C2=C(Nc3n[nH]cc31)[C@H](F)C(C)(C)CC2=O (single isomer, unassigned)
Concentration: 1 µM
| target | test | how to read | remaining binding |
| --- | --- | --- | --- |
| Dual specificity mitogen-activated protein kinase kinase 4 (MAP2K4, Homo sapiens, UniProt P45985) | binding, competition with immobilised ligand | – | 83% |
| Ephrin type-B receptor 6 (EPHB6, Homo sapiens, UniProt O15197) | binding, competition with immobilised ligand | – | 84% |
| MAP/microtubule affinity-regulating kinase 4 (MARK4, Homo sapiens, UniProt Q96L34) | kinase binding, KINOMEscan | baseline: DMSO control | 89% |
| Serine/threonine-protein kinase VRK2 (VRK2, Homo sapiens, UniProt Q86Y07) | kinase binding, KINOMEscan | baseline: DMSO control | 64% |
| Serine/threonine-protein kinase pim-1 (PIM1, Homo sapiens, UniProt P11309) | kinase binding, KINOMEscan | baseline: DMSO control | 100% |
| Receptor-interacting serine/threonine-protein kinase 2 (RIPK2, Homo sapiens, UniProt O43353) | binding, competition with immobilised ligand | – | 100% |
| Tyrosine-protein kinase ABL1, phosphorylated (ABL1, Homo sapiens, UniProt P00519, Y253F) | binding, competition with immobilised ligand | – | 97% |
| Serine/threonine-protein kinase MAK (MAK, Homo sapiens, UniProt P20794) | kinase binding, KINOMEscan | baseline: DMSO control | 87% |
| Serine/threonine-protein kinase SIK2 (SIK2, Homo sapiens, UniProt Q9H0K1) | kinase binding, KINOMEscan | baseline: DMSO control | 100% |
| Phosphatidylinositol 4,5-bisphosphate 3-kinase catalytic subunit beta isoform (PIK3CB, Homo sapiens, UniProt P42338) | kinase binding, KINOMEscan | baseline: DMSO control | 59% |
| Serine/threonine-protein kinase MARK1 (MARK1, Homo sapiens, UniProt Q9P0L2) | binding, competition with immobilised ligand | – | 86% |
| Ephrin type-A receptor 6 (EPHA6, Homo sapiens, UniProt Q9UF33) | binding, competition with immobilised ligand | – | 94% |
| Receptor-type tyrosine-protein kinase FLT3 (FLT3, Homo sapiens, UniProt P36888) | binding, competition with immobilised ligand | – | 99% |
| Tyrosine-protein kinase ABL1, non-phosphorylated (ABL1, Homo sapiens, UniProt P00519, T315I) | kinase binding, KINOMEscan | baseline: DMSO control | 90% |
| Ephrin type-B receptor 4 (EPHB4, Homo sapiens, UniProt P54760) | kinase binding, KINOMEscan | baseline: DMSO control | 100% |
| Tyrosine-protein kinase receptor Tie-1 (TIE1, Homo sapiens, UniProt P35590) | kinase binding, KINOMEscan | baseline: DMSO control | 80% |
| Serine/threonine-protein kinase Sgk2 (SGK2, Homo sapiens, UniProt Q9HBY8) | binding, competition with immobilised ligand | – | 100% |
| Phosphatidylinositol 4,5-bisphosphate 3-kinase catalytic subunit alpha isoform (PIK3CA, Homo sapiens, UniProt P42336, H1047L) | kinase binding, KINOMEscan | baseline: DMSO control | 96% |

Mixed results
| Compound | tested on | test | test system | conditions | endpoint | value |
| --- | --- | --- | --- | --- | --- | --- |
| CCONC(=O)/C=C/CNCCCCN1c2cc(Cl)ccc2CCc2cnn(C)c21.O=C(O)/C=C\C(=O)O | – | – | human liver microsomes | 1 µM | intrinsic clearance | 43 ± 9.9 µL/min/mg protein |
| Cc1ccc(O)c(C)c1-c1cnc2[nH]c(-c3cnc(N4CCC(CN5CCN(c6ccc(NC7CCC(=O)NC7=O)cc6F)CC5)CC4)nc3)cc2c1C#N (stereo not drawn) | – | – | male cynomolgus monkey, plasma | oral, 10 mg/kg | Cmax | 89 ng/mL |
| CCN1CCN(Cc2ccc(COc3c(-c4c(C)c(F)cc5[nH]ncc45)c(C4CC4)cc4c(N5C[C@@H]6C[C@H]5CN6)nc(OC5CCOCC5)nc34)cc2)C(=O)C1 | A-375 (KRAS wild type) | in-cell ELISA, item: phospho-ERK1/2 | – | 30 nM, 2 h | ERK1/2 phosphorylation | 120% and 115% and 124% and 131% |
| Cc1ccc(O)c(C)c1-c1cnc2[nH]c(-c3cnc(N4CCC5(CC4)CC(N4CCN(c6ccc(N[C@H]7CCC(=O)NC7=O)cc6F)CC4)CO5)nc3)cc2c1C#N (single isomer, unassigned) | – | – | female CD-1 mouse, plasma | oral, 40 mg/kg | AUC(0-t) | 7440 ng·h/mL |
| CN(C)C/C=C/C(=O)NCCCN1c2ccccc2CCc2ccc(Cl)cc21 | E3 ubiquitin-protein ligase NEDD4 (Homo sapiens, UniProt P46934) | enzyme activity, inhibitor, TR-FRET | – | 33 µM | inhibition | 26.7% |
| Cc1ccc(O)c(C)c1-c1cnc2[nH]c(-c3cnc(N4CCC(CN5CCN(c6cc7c(cc6F)c(N6CCC(=O)NC6=O)nn7C)CC5)CC4)nc3)cc2c1C#N | – | – | female CD-1 mouse, plasma | oral, 20 mg/kg | bioavailability | 71.8% |
| Cn1ncc2c1N(CCCCNC/C=C/C#N)c1cc(Cl)ccc1CC2.O=C(O)/C=C\C(=O)O | – | – | mouse liver microsomes | 1 µM | intrinsic clearance | 125 ± 4.6 µL/min/mg protein |
| Cc1ccc(O)c(C)c1-c1cnc2[nH]c(-c3cnc(N4CCC5(CC4)CC(N4CCN(c6cc7c(cc6F)c(N6CCC(=O)NC6=O)nn7C)CC4)CO5)nc3)cc2c1C#N (racemic) | Membrane-associated tyrosine- and threonine-specific cdc2-inhibitory kinase (PKMYT1, Homo sapiens, UniProt Q99640) | binding, HTRF | – | 37.04 nM | inhibition | 94.5% and 93.8% |
| CCOC(=O)/C=C/CNCCCCN1c2cc(Cl)ccc2CCc2cnn(C)c21.O=C(O)/C=C\C(=O)O | – | – | human liver microsomes | 1 µM | intrinsic clearance | 420 ± 28.3 µL/min/mg protein |
| Cc1ncsc1-c1ccc(C2(NC(=O)C3CC(O)CN3C(=O)C(NC(=O)c3ccc(COc4c(-c5c(C)c(F)cc6[nH]ncc56)c(C5CC5)cc5c(N6CC7CC6CN7)nc(OC6CCOCC6)nc45)cc3)C(C)(C)C)CC2)cc1 (stereo not drawn) | ASPC1 | cell growth or viability, ATP luminescence | – | – | IC50 | 853 nM |

A few entries again (series 5):
| cell line | test | conditions | viability |
| --- | --- | --- | --- |
| HEK293 | CellTiter-Glo | 1.52 nM | 98.7% and 95.9% and 98.2% |
| HEK293 | CellTiter-Glo | 1.11 µM | 97.8% and 95.6% and 96.8% |
| NCI-H647 | cell proliferation, CellTiter-Glo luminescence | 0.04576 µM | 96.1% and 97.4% and 96.2% |
| HEK293 | CellTiter-Glo luminescence | 0.04576 µM | 97.8% and 96.8% and 95.6% |
| HEK293 | CellTiter-Glo | 370 nM | 96.5% and 99.4% and 94.2% |
| NCI-H647 | cell proliferation, CellTiter-Glo luminescence | 0.5229 µM | 91.8% and 91.3% and 93.3% |
| HEK293 | CellTiter-Glo | 41.1 nM | 99.1% and 101% and 98.5% |
